Measured values collected from several papers.
Every numbered part comes from another study and shows a few of its results, in no order. Several values in a cell are separate wells, animals, samples, runs or records. Numbers after ± are the reported error. ≈ marks a conversion by molar mass, not a printed value.

Study 1 — read-out: binding
Compound: O=C1CC[C@H](Nc2ccc(N3CCNCC3)c(F)c2)C(=O)N1
Target: Protein cereblon (CRBN, Homo sapiens, UniProt Q96SW2)
Chain of UniProt Q96SW2 (whole entry, looked up): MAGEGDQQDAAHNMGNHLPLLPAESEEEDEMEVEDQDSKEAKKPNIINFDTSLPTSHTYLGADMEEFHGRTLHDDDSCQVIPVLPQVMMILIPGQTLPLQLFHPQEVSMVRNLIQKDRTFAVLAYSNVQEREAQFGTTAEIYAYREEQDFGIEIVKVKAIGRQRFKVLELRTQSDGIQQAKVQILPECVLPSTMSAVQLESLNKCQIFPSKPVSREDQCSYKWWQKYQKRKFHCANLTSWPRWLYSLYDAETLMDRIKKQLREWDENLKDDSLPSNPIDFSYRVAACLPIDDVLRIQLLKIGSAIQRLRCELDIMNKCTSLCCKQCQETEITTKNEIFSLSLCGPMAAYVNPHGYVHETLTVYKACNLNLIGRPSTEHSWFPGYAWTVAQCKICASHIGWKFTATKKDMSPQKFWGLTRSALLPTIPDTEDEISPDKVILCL
concentration	inhibition
30000 nM	102% and 98.7%
123.46 nM	41.6% and 31.2%
3333.33 nM	92.1% and 88.3%

Study 2
SMILES: Cn1cc(-c2cccc(CN3CCC4(CC3)COc3c4ccc4c3CN([C@H]3CCC(=O)NC3=O)C4=O)c2)cn1
sample	intrinsic clearance [mL/min/kg]
human liver microsomes	< 14.5
mouse liver microsomes	< 45.5
rat liver microsomes	< 20.7

Study 3
Compound: CCCCC[C@@H]1CC(=O)N[C@@H](C(C)C)C(=O)N[C@H](CCCNC(=N)N)C(=O)N[C@@H](CO)C(=O)NCC(=O)N(C)[C@H](Cc2ccccc2)C(=O)N[C@@H](CC(C)C)C(=O)N[C@H](CCCNC(=N)N)C(=O)N[C@@H](CC(N)=O)C(=O)N[C@H](C(C)C)C(=O)N[C@H](Cc2c[nH]c3ccccc23)C(=O)NCCCC(=O)O1
organism	read-out	strain	time	added	MIC [µg/mL]
Staphylococcus aureus	–	USA300	–	menaquinone 2 µg/mL	16 (≈ 11 µM)
Staphylococcus aureus	–	USA300	–	menaquinone 16 µg/mL	> 64
Staphylococcus aureus	–	USA300	–	menaquinone 0 µg/mL	4 (≈ 2.75 µM)
Staphylococcus aureus	–	USA300	–	menaquinone 0.0625 µg/mL	4 (≈ 2.75 µM)
Escherichia coli	microbial growth	–	16 h	–	> 64

Further values, each from its own experiment
Structure (SMILES)	organism	read-out	strain	time	quantity	value
FC(F)(F)c1ccc(C2=NOC3(NC(c4ccccc4)=NO3)N2c2ccccc2)cc1 (stereo not drawn)	Plasmodium falciparum	parasite growth	SB1-A6 atovaquone-resistant	72 h	IC50	16.4 ± 7.75 µM

Excerpt of the above (study 2):
sample	intrinsic clearance [mL/min/kg]
human liver microsomes	< 14.5
rat liver microsomes	< 20.7
